Experimental data collected from several papers.
Each numbered part is a random draw from the data of one study; scales do not carry over between parts.

Set 1
Target: RNA binding protein fox-1 homolog 2, RRM domain, GST-SBP tag (RBFOX2, Homo sapiens, UniProt O43251-10, residues 100-194)
Method: RNA Bind-n-Seq
Molecule type: RNA
Sample: in vitro
Concentration: 365 nM
Setting: natural RNA segment, single round, ends assumed
Reference: no-protein control
Reading: higher = stronger binding
Measurement: RBNS enrichment (R)
Constant ends, left off below: GGGAGUUCUACAGUCCGACGAUC … UGGAAUUCUCGGGUGCCAA
Target sequence (chain): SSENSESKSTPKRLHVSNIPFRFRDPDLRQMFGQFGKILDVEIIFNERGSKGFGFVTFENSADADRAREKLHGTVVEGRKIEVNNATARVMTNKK
GCUCCCCAUUGAUUGAAGAGUCACUGUCUGAAAGAAGCAAAGUUCAGUUUCAGCAACAAACAAACUUUGUUUGGGAAGCUAUGGAGGAGGACUUUUAGAUUUAGUGAAGA: 0.945
ACAAGAUGUGCCUUGCCUUCCGAGAAUAAGUAUUACCUUUAAACAAUAUCAGCGCACACACAUAGCUGCAUGUUCUGCUCGUGUAGUUUAAAAAAAAAAAGACAAAACAG: 2.19
UUCUAUUCUAACAAAGUAGUCUUGAGUUUCAUUUCUUAUGCCCCAUGGUAGUGGGAACCAGACCAAUCACAAUGUUUUAUUGAAACAUAUUCCAUCGUUACAGGAUAGCG: 0.32
AGGUAACUUUUCCUAGGUUUCACUCUUUUUAGUGUACUAGAUCCAGAAACUUAGUGUAAUGCCCUGCUUUAUAUUUCUUUGACUUAACAUUGGUUUCAGAAAGAAUCUUA: 0.312
UGUGUGUGUGUGUAGAGGGAUGGACAGGAUGCUGUUUAUUUUCCCUUUCUUGGAAAUGGACCUUCUGUCCCUUCCAUUUGGACACCACAGUGGAAGCUGGUGGCCUGGAA: 0.345
AGGUCCAGAGGAGGUGGGCAGGGUCUGUGGUCCUCGUUCUCCAUGCCAUCUCCCUGCCAGCACCCCUUGAGUGUCCACAUCCAGGGACCGAGCCUGGCACAGCUCCCCUA: 0.42
CAGAGUGGGCAGGGAAGUGGCUUCAGCCCCUGAGACCCAGAAUAAUAACUAAUCAGCUAGUGUUGUGCCAGCUGUCAUGUACACUGUGGUAUUCUUCAUAGCUCUGAGUU: 0.425
UUCUAGGUUCCCUCCUCCCCCUACCCCAUCUCCUACCUCCACAGUACAGACUGUCCCCAACUUAACAGUGGUUCAACUUAAACCAUGUUUCAACUUUACAAUUGGUCUGU: 0.83

Set 2
Cell line: HEK-293T/ACE2
Read-out: pseudovirus infection
Organism: VSV pseudotyped with SARS-CoV-2 spike
Concentration: 10 µM
Time: 16 h
Reference: vehicle-treated
Measurement: GFP-positive cells
CN(C)c1cc(NC(=O)CNC(C)(C)C)c(O)c2c1C[C@H]1C[C@H]3[C@H](N(C)C)C(O)=C(C(N)=O)C(=O)[C@@]3(O)C(O)=C1C2=O: 87.9%
CN(C)C(=O)Oc1cccc([N+](C)(C)C)c1: 57.9%
Cc1ccccc1N1C(=O)c2cc(S(N)(=O)=O)c(Cl)cc2NC1C (centres unmarked): 61%

Set 3
Molecule: (-)-epicatechin gallate
Mode: inhibitor
Concentration: 20 µM
Measurement: inhibition
rep nsp13 helicase: Replicase polyprotein 1ab, nsp13 helicase (rep, Severe acute respiratory syndrome coronavirus 2, UniProt P0DTD1)
Replicase polyprotein 1ab, nsp12 with nsp7/nsp8 (rep, Severe acute respiratory syndrome coronavirus 2, UniProt P0DTD1); RdRp activity: 79.1%
rep nsp13 helicase; helicase activity, measured: nsp13 helicase; with DTT: 62.8%
rep nsp13 helicase; ATPase activity, measured: nsp13 helicase: 81.9%
rep nsp13 helicase; helicase activity, measured: nsp13 helicase: 85.3%

Other studies, line by line
Target: Replicase polyprotein 1ab, main protease (rep, Severe acute respiratory syndrome coronavirus 2, UniProt P0DTD1)
Read-out: enzyme activity
Mode: inhibitor
Organism: SARS-CoV-2
Added: DTT
O=C(/C=C/c1ccc2ccccc2n1)c1ccncc1  IC50: 190 nM
S=C=Nc1cccc(NC(=S)NCCCCNC(=S)Nc2cccc(N=C=S)c2)c1  IC50: > 20000 nM

Excerpt of the above (set 1):
UUCUAUUCUAACAAAGUAGUCUUGAGUUUCAUUUCUUAUGCCCCAUGGUAGUGGGAACCAGACCAAUCACAAUGUUUUAUUGAAACAUAUUCCAUCGUUACAGGAUAGCG: 0.32
